Published values from different studies.
Each line is one published result; not all experiments were run side by side. ± gives the spread as reported.
Technique: steady-state kinetics
B1: STH1425 H227V (Symbiobacterium thermophilum, UniProt Q67PI3); chain MDKLRVAVVGYGNVGRYALEAVQAAPDMELVGVVRRKVLAATPPELTGVRVVTDISQLEGVQGALLCVPTRSVPEYAEAMLRRGIHTVDSYDIHGDLADLRRRLDPVAREHGAAAVISAGWDPGTDSIIRALLEFMAPKGITYTNFGPGMSMGHSVAVKAIPGVRDALSMTIPAGMGVHKRAVYVELEPGADFAEVERAIKTDPYFVRDETRVTQVESVSALMDVGVGVVMERKGVSGATHNQLFRFEMRINNPALTAQVMVAALRAAARQKPGCYTMIEIPVIDYLPGDREAWIRKLV
B2: enzyme (Thermotoga maritima, UniProt Q9WZV7); chain VENVTESKELERLKRIDRMKTEFIANISHELRTPLTAIKAYAETIYNSLGELDLSTLKEFLEVIIDQSNHLENLLNELLDFSRLERKSLQINREKVDLCDLVESAVNAIKEFASSHNVNVLFESNVPCPVEAYIDPTRIRQVLLNLLNNGVKYSKKDAPDKYVKVILDEKDGGVLIIVEDNGIGIPDHAKDRIFEQFYRVDSSLTYEVPGTGLGLAITKEIVELHGGRIWVESEVGKGSRFFVWIPKDRAGEDNRQDN
B3: enzyme N249W (Thermobifida fusca, UniProt Q47RK4); chain MTDVYILDAVRTPFGRYGGALSGIRPDDLAAHVLRALAERSPGLDPAAVDDVFFGDANGAGEDNRNVARMAALLAGWPTSVPGVTLNRLCGSGMESVIAANRAIAVGDASLAVAGGVESMSRAPWVLPKPAQGFPTGHETLYSTTLGWRMVNPAMPEQWTVSLGESTEQVAATYGISRAEQDAFALRSHERAARAWAEGVFDAEITQIPGAELERDESIRETSAEKLAALKPAFRPDGTITAGNASPLWDGAAALLIGDAAAAERVGREPLARIVSRGVAAVDPDVFGIGPVQAAEIALRRAGIGWDDLSVVELNEAFAAQSLACLKLWPDLDPEIVNPNGGAIAIGHPLGASGARIVGTLAHELHRRGGGWGLAAICIGVGQGLAVVLHR
B4: Lxyl-p1-1 A72T (Lentinula edodes, UniProt G8GLN9); chain YFSGLGLGSERSIFRRDLNSTGDESNSTQWPAPLANGGKSWASAFKKAKSTVTEMTVEELANITSGVIGLCVGVTGAVTRLGIPELCLQDGPIGPRGVHGSSQFPAGLTVAATWDRTLMYARARGMGQEFHDQGVHIALAPVTGGPLGRTPLNGRGWEGTFADPYACGEASYQSVKGLTDAGVATVSKHWIAYEQETSRNLYIEFDGVSQADIQLPISSNVDDLTMHELYMWSFAEAVRAGTNHIMCSYNRINNTHSCNNAKGLNQLLKTELNFQGGVVSDWGGQWDSVLSAENGLDVGMPGEGFLGELGDFWGTTLADLINNGTVSEDLVRDKVVRLLTGYYYLGQDINPPPPFVYNTIGAPTLNATSGYRNVRKPGTAELIKEIGSASVTLLKNTGSLPLKHPQRIAVLGNDATYNVLGPNACGLANSACDIDNLNGTLTTGGGSGSALSPYTITPLEALQKRAIEDNAEIAAVVANSNTTTGAEDAIAALLPDADVTFVFLNRYSEEGADAPDFSLGGDGDNLMDLAVTYSSNVVVVIHTTGVVDIEKWADNPNVTAILVAYLPGQEAGNSLVPVLYGDVAPSGKLPWTWGKSIDDYVPNGVVYTDAYSPQSNFTEGVFIDYRWFDKMGITPRYEFGFGLSYTTFTYSNLIVDHGRWAKDYSSVMETAEPFAEWDGTNSLYDVIFTVFATITNTGNLTGSEVAQLYISIPGDNQPVRQLRGFDKIKDLPVGDSAVVTFPIRRKDVSSWSVVDQLWYVPNGDFLISVGGSSRDLPLNTTWTP
B5: enzyme H376N (Acetivibrio thermocellus, UniProt A3DJ38); chain MKLTIPELSLVVLIGSSGSGKSTFAKKHFKPTEVISSDFCRGLVSDDENDQTVTGAAFDVLHYIVSKRLQLGKLTVVDATNVQESARKPLIEIAKDYHCFPVAVVFNLPEKVCQERNKNRTDRQVEEYVIRKHTQQLKKSIKGLQREGFRYVYILNSPEEVEEVVFERQPLWNNKKDEHGPFDIIGDIHGCYDELKMLLEKLGYLIEEVEGGVGSGKYRVTHPEGRKVLFLGDLVDRGPKITEVLKLVMGMVKSGIALCVPGNHDVKLLRKLNGRDVQITHGLDRTLEQLAKEPQEFIEEVKAFIDGLVSHYVLDDGKLVVAHAGMKEEFQGRGSGKVREFALYGETTGETDEYGLPVRYDWASDYRGKALVVYGNTPQAEVLKVNNTINIDTGCVFGGKLTAYRYPEREIVDVKALKTYYEPAKPFLPKEDMAERFEARTDNDILDINDVLGKKIITTRLMSSITIHEENSIAALEVMSRFAADPHWLIYLPPTMSPCETSKKEGMLEHPIEAFEYFRTRGVGKVVCEQKHMGSRAVVIVCKDSQVAEKRFGVLDGTAGICYTRTGRHFFDDMQLEAELIDRVRKVLDKSGFWGDFNTDWVCLDCELMPWSAKAQKLLEEQYSAVGISGRVVLDEAVKLLKQASLNKTVSFDVSRQTSGKNADINELLQRFTERSEMMQKYVEAYRKYCWPVNSIDDLKLAPFHILATEGKVHSDKNHIWHMDTIAKYCTQDDSLIMATNHILVDVTDAESVDKGIKWWEDLTASGGEGMVVKPYDFIVKNGRELLQPAVKCRGREYLRIIYGPEYTMDENIERLRNRAVGKKRSLALREFSLGMEALERFVRNEPLYRVHECVFGVLALESEPVDPRL
B6: enzyme D418A (Limosilactobacillus reuteri, UniProt Q8GP32); chain SADTNIENNDSSTVQVTTGDNDIAVKSVTLGSGQVSAASDTTIRTSANANSASSAANTQNSNSQVASSAAITSSTSSAASSNNTDSKAAQENTNTAKNDDTQKAAPANESSEAKNEPAVNVNDSSAAKNDDQQSSKKNTTAKLNKDAENVVKKAGIDPNSLTDDQIKALNKMNFSKAAKSGTQMTYNDFQKIADTLIKQDGRYTVPFFKASEIKNMPAATTKDAQTNTIEPLDVWDSWPVQDVRTGQVANWNGYQLVIAMMGIPNQNDNHIYLLYNKYGDNELSHWKNVGPIFGYNSTAVSQEWSGSAVLNSDNSIQLFYTRVDTSDNNTNHQKIASATLYLTDNNGNVSLAQVANDHIVFEGDGYYYQTYDQWKATNKGAANIAMRDAHVIEDDNGDRYLVFEASTGLENYQGEDQIYNWLNYGGDDAFNIKSLFRILSNDDIKSRATWANAAIGILKLNKDEKNPKVAELYSPLISAPMVSDEIERPNVVKLGNKYYLFAATRLNRGSNDDAWMNANYAVGDNVAMVGYVADSLTGSYKPLNDSGVVLTASVPANWRTATYSYYAVPVAGKDDQVLVTSYMTNRNGVAGKGMDSTWAPSFLLQINPDNTTTVLAKMTNQGDWIWDDSSENLDMIGDLDSAALPGERDKPVDWDLIGYGLKP
Chain of UniProt Q6XEC0 (whole entry, looked up): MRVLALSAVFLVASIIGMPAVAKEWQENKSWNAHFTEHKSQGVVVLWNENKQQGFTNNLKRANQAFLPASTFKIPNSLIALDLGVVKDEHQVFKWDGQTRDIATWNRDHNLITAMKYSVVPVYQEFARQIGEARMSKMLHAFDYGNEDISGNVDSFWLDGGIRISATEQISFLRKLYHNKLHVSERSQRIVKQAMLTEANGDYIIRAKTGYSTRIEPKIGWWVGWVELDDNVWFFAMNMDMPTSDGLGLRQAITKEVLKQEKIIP

| Molecule | substrate | conditions | kcat [s⁻¹] |
| --- | --- | --- | --- |
| Cj1427c (Campylobacter jejuni, UniProt Q0P8I7) | Nc1nc2c(ncn2[C@@H]2O[C@H](COP(=O)(O)OP(=O)(O)O[C@H]3O[C@H]([C@H](O)CO)[C@@H](O)[C@H](O)[C@@H]3O)[C@@H](O)[C@H]2O)c(=O)[nH]1 | pH 7.4, 30 °C, apparent | 0.64 ± 0.02 |
| B1 (STH1425 H227V) | O=C(O)C(=O)Cc1ccccc1 | pH 9, 30 °C, reductive amination, together with: NH4Cl 200 mM, NADPH 0.5 mM | 1.13 ± 0.06 |
| B2 (enzyme) | C#CCSP(=O)(O)OP(=O)(O)OP(=O)(O)OC[C@H]1O[C@@H](n2cnc3c(N)ncnc32)[C@H](O)[C@@H]1O | apparent | 2.1 ± 0.6 |
| B3 (enzyme N249W) | CC(=O)SCCNC(=O)CCNC(=O)[C@H](O)C(C)(C)COP(=O)(O)OP(=O)(O)OC[C@H]1O[C@@H](n2cnc3c(N)ncnc32)[C@H](O)[C@@H]1OP(=O)(O)O | pH 7.4, 37 °C | 0.00517 ± 7.83e-05 |
| B4 (Lxyl-p1-1 A72T) | [H][C@]12[C@H](OC(=O)c3ccccc3)[C@]3(O)C[C@H](OC(=O)[C@H](O)[C@@H](NC(=O)c4ccccc4)c4ccccc4)C(C)=C([C@@H](O)C(=O)[C@]1(C)[C@@H](O[C@@H]1OC[C@@H](O)[C@H](O)[C@H]1O)C[C@@]1([H])OC[C@@]21OC(C)=O)C3(C)C |  | 5.35 ± 0.51 |
| B5 (enzyme H376N) | Nc1ncnc2c1ncn2[C@@H]1O[C@H](CO)[C@H]2OP(=O)(O)O[C@H]21 | pH 7.5, 45 °C | 5.13 ± 0.3 |
| ω-transaminase A60V/E38Q/F86L/I154V/M128F/P9A/R417L/S87N/W58M (Pseudomonas jessenii) | CCCC(=O)c1ccccc1 | pH 8, 56 °C, apparent, together with: isopropylamine 1 M, PLP 0.05 mM | 2.5 ± 0.2 |
| B6 (enzyme D418A) | OC[C@H]1O[C@@](CO)(O[C@H]2O[C@H](CO)[C@@H](O)[C@H](O)[C@H]2O)[C@@H](O)[C@@H]1O | pH 5.5, 50 °C, apparent | 360 ± 10 |
| nitrilase (Rhodococcus rhodochrous, UniProt A4LA85) | N#Cc1ccccn1 | pH 7.5, 25 °C | 0.0001767 ± 1.67e-06 |
| OXA-48 (Klebsiella pneumoniae, UniProt Q6XEC0) | O=C(Cc1cccs1)N[C@@H]1C(=O)N2C(C(=O)O)=C(/C=C/c3ccc([N+](=O)[O-])cc3[N+](=O)[O-])CS[C@H]12 | pH 7.2, 30 °C | 143 ± 24 |

Excerpt of the above:
| Molecule | substrate | conditions | kcat [s⁻¹] |
| --- | --- | --- | --- |
| B1 (STH1425 H227V) | O=C(O)C(=O)Cc1ccccc1 | pH 9, 30 °C, reductive amination, together with: NH4Cl 200 mM, NADPH 0.5 mM | 1.13 ± 0.06 |
